Measured values of several laboratories.
Every numbered part comes from another study and shows a few of its results, in no order. Substitutions count along the parent as printed.

Block 1
Target: UBE2N UBC core domain (UniProt P61088)
Technique: yeast two-hybrid
Sample: yeast
Notes: mostly zero background
Relative to: not given
Reading: higher = stronger interaction
Quantity: lacZ reporter activity
B1: RNF187 RING domain (UniProt Q5TA31); chain ALPAGPAEAACALCQRAPREPVRADCGHRFCRACVVRFWAEEDGPFPCPECADDCWQRAVEP
B2: RNF152 RING domain (UniProt Q8N8N0); chain ETLSQDSLLECQICFNYYSPRRRPKLLDCKHTCCSVCLQQMRTSQKDVRCPWCRGVTKLPPGFS
B3: DEF8 RING domain (UniProt Q6ZN54); chain AGRLGCSLTEIHTLFAKHIKLDCERCQAKGFVCELCREGDVLFPFDSHTSVCADCSAVFHRDCYYDNSTTCPKCARLSLRK
B4: ANAPC11 RING domain (UniProt Q9NYG5); chain GICRMAFNGCCPDCKVPGDDCPLVWGQCSHCFHMHCILKWLHAQQVQQHCPMCRQEWKFKE
B5: TRIM37 RING domain (UniProt O94972); chain SVESIAEVFRCFICMEKLRDARLCPHCSKLCCFSCIRRWLTEQRAQCPHCRAPLQLRELVN
B6: TRIM60 RING domain (UniProt Q495X7); chain ALVNLQEESSCPICLEYLKDPVTINCGHNFCRSCLSVSWKDLDDTFPCPVCRFCFPYKSFRR
Residues (chain): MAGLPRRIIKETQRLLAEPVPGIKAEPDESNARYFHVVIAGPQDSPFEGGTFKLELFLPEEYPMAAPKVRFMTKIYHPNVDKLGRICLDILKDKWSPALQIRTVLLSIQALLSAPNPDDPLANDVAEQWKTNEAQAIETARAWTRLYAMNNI
FVKTVEDKYKCEKCHLVLCSPKQTECGHRFCESCMAALLSSSSPKCTACQESIVKDKVF (TRAF3 RING domain (UniProt Q13114)): 0
B1 (RNF187 RING domain): 0
B2 (RNF152 RING domain): 10800
YPEEVDDDLICHICLQALLDPLDTPCGHTYCTLCLTNFLVEKDFCPMDRKPLVLQHCKK (LNX1 RING domain (UniProt Q8TBB1)): 0
B3 (DEF8 RING domain): 0
B4 (ANAPC11 RING domain): 0
B5 (TRIM37 RING domain): 0
B6 (TRIM60 RING domain): 0

Block 2
Target: Phosphate system positive regulatory protein PHO4, full length, GST-tagged (PHO4, Saccharomyces cerevisiae, UniProt P07270, residues 1-312)
Technique: competition protein-binding microarray
Molecule type: double-stranded DNA, one strand shown
Sample: in vitro
Tested at: 2 µM
Notes: whole 60-bp probe, lowest competitor level
With: Cbf1 competitor, 0.05 µM
Reading: higher = stronger binding
Quantity: fluorescence intensity
Target sequence (chain): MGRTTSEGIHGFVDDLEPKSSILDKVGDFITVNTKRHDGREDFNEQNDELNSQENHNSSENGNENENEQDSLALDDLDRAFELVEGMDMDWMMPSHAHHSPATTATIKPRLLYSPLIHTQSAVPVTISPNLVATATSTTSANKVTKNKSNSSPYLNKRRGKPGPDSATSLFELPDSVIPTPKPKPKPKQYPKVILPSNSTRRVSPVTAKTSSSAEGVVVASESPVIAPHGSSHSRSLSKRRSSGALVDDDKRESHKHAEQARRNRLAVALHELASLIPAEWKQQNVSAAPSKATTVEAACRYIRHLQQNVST
CATCACCTTCCTTAGCACGGGTTCTTGCTGTCTGCTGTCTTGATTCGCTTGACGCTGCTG: 10900 a.u.
CATACCCAACCTTGAGACGTGGGTGAAGATATTTGTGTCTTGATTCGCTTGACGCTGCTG: 7020 a.u.
TACAAGGTTATCCTGATCGTGCGGACAAGAAGATCAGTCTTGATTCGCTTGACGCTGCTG: 6570 a.u.
CGTCCTAGCGATTGACAGGTGGGTGCCATGAGGAAGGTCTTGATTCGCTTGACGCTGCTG: 8010 a.u.
CTTTCCCGATCTTGATGAGTGGGTGTAGCACATTTGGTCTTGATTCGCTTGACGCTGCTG: 4430 a.u.
TGAGGGTGAGTATGGCATGTGGTGGTGGGATTGGAGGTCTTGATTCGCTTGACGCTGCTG: 10100 a.u.
ATGAGAAGCGCAAATGTCGTGATGGCAATAGCCCGGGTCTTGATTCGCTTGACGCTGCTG: 4830 a.u.
AAGACAAATGGTCGGCCCGTGACGGTTGCAGGCCCAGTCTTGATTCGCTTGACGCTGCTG: 4980 a.u.
CTTTCCCGATCTTGCGTAGTGGGTGTAGCACATTTGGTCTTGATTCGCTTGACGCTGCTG: 4620 a.u.
GGGACCTCCAGCAAGCACATGGCATCCTTTTATAAGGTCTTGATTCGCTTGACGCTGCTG: 10800 a.u.
CTAAGGCTGATGCTCAACGTGAAAAGGCTTTGAACGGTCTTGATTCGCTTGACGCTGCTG: 5930 a.u.
TCACAAGATGATTGTCATGAAATTCTCTGTCTCTCCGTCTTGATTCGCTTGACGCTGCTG: 2970 a.u.
CATACCCAACCTTTTCACGTGGACTAAGATATTTGTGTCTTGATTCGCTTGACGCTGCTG: 16400 a.u.
ACAAAAATGACGGAACTCGTGACTCGAGTCAAAAGCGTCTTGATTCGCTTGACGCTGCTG: 6630 a.u.
CTTCATTTTGGGTGGCACATGGCAAAGCAATGTCGAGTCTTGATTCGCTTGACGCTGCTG: 11500 a.u.
TGCGCAACAACTTGCCATGTGGGTGTATGTCTAGAAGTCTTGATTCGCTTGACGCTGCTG: 10800 a.u.
CCAAAGCCCTCGAAACGCGTGTTCCTCTCAGCGGCAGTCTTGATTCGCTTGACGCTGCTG: 8110 a.u.
TGCGCAACAACTTACCACGTGTTTTTATGTCTAGAAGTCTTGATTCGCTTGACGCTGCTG: 19100 a.u.
CTCTATCTTGTACGCAACGTGTGGAGCTTTATTCTAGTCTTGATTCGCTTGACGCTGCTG: 14900 a.u.
GTAAATGCCGCCCATCACGTGGTGAAGAAAAGAAACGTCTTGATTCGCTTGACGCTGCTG: 16200 a.u.
CTTCTGTAAATTTGGTGTGTGGGTGGACGCGCCCCGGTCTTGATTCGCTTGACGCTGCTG: 5440 a.u.
GTCTTGTCTCATTGTCACACAACTTTCCCCACTTCAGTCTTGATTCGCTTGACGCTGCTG: 4700 a.u.
AAAGCGGTAATTTGTATCGTGGGTGCAGATATCTATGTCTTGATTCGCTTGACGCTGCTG: 8290 a.u.
AAAAAGTAAAGTTAGCACGTGATGGTTTAGAAAATCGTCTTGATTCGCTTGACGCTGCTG: 17500 a.u.
GGAGTTAAAGTCGACCACGGGTCCTTTGGAGCATAGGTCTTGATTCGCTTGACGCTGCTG: 9330 a.u.

Block 3
Target: ABI1, truncated, D143A, DHFR fusion (Arabidopsis thaliana)
Technique: DHFR PCA, deep sequencing
Sample: yeast
Notes: methotrexate growth selection, single substitutions
With: (+)-ABA 0.39 µM
Relative to: wild-type fitted maximum
Reading: higher = stronger binding
Quantity: relative binding score
Starting sequence: PYL1, truncated, DHFR fusion (Arabidopsis thaliana); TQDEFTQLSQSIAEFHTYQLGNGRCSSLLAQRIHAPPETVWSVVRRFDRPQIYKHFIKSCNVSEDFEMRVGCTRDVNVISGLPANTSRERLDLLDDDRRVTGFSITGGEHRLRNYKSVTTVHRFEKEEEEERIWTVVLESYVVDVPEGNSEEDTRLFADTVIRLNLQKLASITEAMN
V145S: -14.4%
S171G: 14%
V62G: -11.7%
V100Q: -8.2%
V44M: 4.67%
V161S: 19.3%
S150N: 28.3%
S104P: 1.46%
T160A: 9.6%
T135R: -5.08%
D3T: 36.3%
F124Y: 35.8%
N85T: 75.9%
E38W: -4.82%
T135C: 22.3%
S11W: 32.5%

Block 4
Target: ATF2, bZIP domain (human)
Technique: DHFR protein complementation
Sample: yeast
Notes: single substitutions, most at no-binding floor
Relative to: wild-type JUN-FOS pair
Reading: higher = stronger binding
Quantity: binding fitness
Starting sequence: JUN, bZIP domain (human); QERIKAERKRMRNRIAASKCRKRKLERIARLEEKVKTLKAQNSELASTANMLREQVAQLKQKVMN; partner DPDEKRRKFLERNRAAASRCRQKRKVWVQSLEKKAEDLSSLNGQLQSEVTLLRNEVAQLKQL
T48A: -1.37 natural log
A29D: -1.42 natural log
L52K: -1.33 natural log
L31D: -1.38 natural log
L52P: -1.53 natural log
E33I: -1.42 natural log
V35A: -1.53 natural log
Q55S: -1.41 natural log
Q41I: -1.28 natural log
V56R: -1.43 natural log
S43Y: -1.29 natural log
R53T: -1.54 natural log
E44Q: -1.41 natural log
N42D: -1.28 natural log
K39E: -1.29 natural log
L45R: -1.45 natural log
L31Q: -1.58 natural log
A29K: -1.34 natural log

Block 5
Target: Interferon regulatory factor 5, full length, phosphomimetic (IRF5, Homo sapiens, UniProt Q13568-2, residues 1-514, S451D/S453D/S456D/S462D)
Technique: protein-binding microarray
Molecule type: double-stranded DNA, one strand shown
Sample: in vitro
Tested at: 940 nM top
Notes: 60-bp whole probe
With: salmon DNA 0.4 mg/ml
Relative to: random background probes
Reading: higher = stronger binding
Quantity: fitted relative affinity
All sequences stand within: GCCTAGCAC … GTCTTGATTCGCTTGACGCTGCTG
GACGGACTGGGACTGGCGACGTGCTAG: -0.733 z-score
GACGGTATCGGTATCGGGCCGTGCTAG: 8.96 z-score
TTAGGACTGGACTCTCGGTTAGTGCTA: 1.34 z-score
GACGGACTGGGGACTGTGGACGTGCTA: -0.152 z-score
TCATTTCTTTTTTTCTTACTGTGCTAG: 1.86 z-score
TTAGAACTGGCGTTTCGATTAGTGCTA: 1.14 z-score
GACGGATTGGGGACTGGGGACGTGCTA: 0.147 z-score
TCCAATTCTCTTTTCACTTTGTGCTAG: 2.13 z-score
TTAGATATCGGGTTTCGGTTAGTGCTA: 6.13 z-score
TTGTTTTTCATTATTGTCTCGTGCTAG: 1.92 z-score
ACTCGTGTTTTTCTCCTATTGTGCTAG: 1.37 z-score
GTCGGTATCGACTATCGGGACGTGCTA: 5.95 z-score
TTAGGCTTCCTTATCCTTTAGTGCTAG: 0.162 z-score
TGAAAATTAGTGTTTGCCCTAGTGCTA: -0.367 z-score
CTACGCCTGCAGGTGAGCCGGTGCTAG: -0.717 z-score
GACGGAGTGGGGACTGGGGACGTGCTA: -0.129 z-score
TTAGGTTGCGGGTATCGGTTAGTGCTA: 3.15 z-score
AGACATTCTTTCAGTTGGAAGTGCTAG: 0.577 z-score
TCAATTTTCATTATTGCACTGTGCTAG: 1.13 z-score
GACGGTTTCCGACTGGGGACGTGCTAG: 0.501 z-score
AACGGTATCGGTCTCGGGACGTGCTAG: 8.42 z-score
GACGATTTCGGGTATCCAGACGTGCTA: 0.6 z-score
GACGATACCGGGACTGGAGACGTGCTA: 0.244 z-score

Other studies, line by line
SNARRSLNFGGST — score relative, wild type, peptide (human cyclin E2; cyclin docking binding, deep mutational scanning; peptide, yeast cyclin E2-Cln2 system; direction not given): 0

Some of these lines once more (block 2):
ATGAGAAGCGCAAATGTCGTGATGGCAATAGCCCGGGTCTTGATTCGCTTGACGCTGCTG: 4830 a.u.
TGCGCAACAACTTACCACGTGTTTTTATGTCTAGAAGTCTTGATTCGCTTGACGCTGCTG: 19100 a.u.
CGTCCTAGCGATTGACAGGTGGGTGCCATGAGGAAGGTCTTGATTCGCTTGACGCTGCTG: 8010 a.u.
CTTTCCCGATCTTGCGTAGTGGGTGTAGCACATTTGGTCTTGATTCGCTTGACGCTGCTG: 4620 a.u.
AAGACAAATGGTCGGCCCGTGACGGTTGCAGGCCCAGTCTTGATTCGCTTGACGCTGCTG: 4980 a.u.
CTTTCCCGATCTTGATGAGTGGGTGTAGCACATTTGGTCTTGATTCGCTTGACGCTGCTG: 4430 a.u.
TGAGGGTGAGTATGGCATGTGGTGGTGGGATTGGAGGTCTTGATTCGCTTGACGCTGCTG: 10100 a.u.
TCACAAGATGATTGTCATGAAATTCTCTGTCTCTCCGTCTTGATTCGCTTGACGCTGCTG: 2970 a.u.
GGGACCTCCAGCAAGCACATGGCATCCTTTTATAAGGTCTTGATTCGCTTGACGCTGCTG: 10800 a.u.
CTAAGGCTGATGCTCAACGTGAAAAGGCTTTGAACGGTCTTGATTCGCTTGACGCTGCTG: 5930 a.u.
TACAAGGTTATCCTGATCGTGCGGACAAGAAGATCAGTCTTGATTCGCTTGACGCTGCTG: 6570 a.u.
CCAAAGCCCTCGAAACGCGTGTTCCTCTCAGCGGCAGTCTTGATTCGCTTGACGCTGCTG: 8110 a.u.
TGCGCAACAACTTGCCATGTGGGTGTATGTCTAGAAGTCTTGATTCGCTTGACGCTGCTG: 10800 a.u.
